Results gathered from unrelated publications.
Protocols differ between the studies behind these lines. Several values in a cell are separate wells, animals, samples, runs or records. ± gives the spread as reported.
UniProt P48067, sequence (whole entry, looked up): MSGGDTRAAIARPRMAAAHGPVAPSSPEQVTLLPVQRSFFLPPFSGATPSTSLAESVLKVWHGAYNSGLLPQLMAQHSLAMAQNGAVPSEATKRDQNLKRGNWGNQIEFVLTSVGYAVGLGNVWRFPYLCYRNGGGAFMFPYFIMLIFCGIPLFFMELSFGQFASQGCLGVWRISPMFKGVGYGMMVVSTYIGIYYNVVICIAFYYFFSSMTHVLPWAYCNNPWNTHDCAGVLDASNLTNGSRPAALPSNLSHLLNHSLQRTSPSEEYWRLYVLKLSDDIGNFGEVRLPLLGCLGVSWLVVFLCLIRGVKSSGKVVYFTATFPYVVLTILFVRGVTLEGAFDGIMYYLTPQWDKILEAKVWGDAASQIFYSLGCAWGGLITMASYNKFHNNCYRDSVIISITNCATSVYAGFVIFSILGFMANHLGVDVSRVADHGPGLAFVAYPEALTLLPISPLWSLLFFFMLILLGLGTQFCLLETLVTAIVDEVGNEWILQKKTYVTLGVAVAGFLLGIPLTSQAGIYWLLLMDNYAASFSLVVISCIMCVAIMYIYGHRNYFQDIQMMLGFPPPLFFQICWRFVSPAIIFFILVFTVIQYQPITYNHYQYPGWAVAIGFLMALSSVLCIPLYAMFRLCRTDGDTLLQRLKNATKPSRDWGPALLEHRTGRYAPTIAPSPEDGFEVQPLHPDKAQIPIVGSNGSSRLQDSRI
UniProt Q64663, sequence (whole entry, unmodified, looked up): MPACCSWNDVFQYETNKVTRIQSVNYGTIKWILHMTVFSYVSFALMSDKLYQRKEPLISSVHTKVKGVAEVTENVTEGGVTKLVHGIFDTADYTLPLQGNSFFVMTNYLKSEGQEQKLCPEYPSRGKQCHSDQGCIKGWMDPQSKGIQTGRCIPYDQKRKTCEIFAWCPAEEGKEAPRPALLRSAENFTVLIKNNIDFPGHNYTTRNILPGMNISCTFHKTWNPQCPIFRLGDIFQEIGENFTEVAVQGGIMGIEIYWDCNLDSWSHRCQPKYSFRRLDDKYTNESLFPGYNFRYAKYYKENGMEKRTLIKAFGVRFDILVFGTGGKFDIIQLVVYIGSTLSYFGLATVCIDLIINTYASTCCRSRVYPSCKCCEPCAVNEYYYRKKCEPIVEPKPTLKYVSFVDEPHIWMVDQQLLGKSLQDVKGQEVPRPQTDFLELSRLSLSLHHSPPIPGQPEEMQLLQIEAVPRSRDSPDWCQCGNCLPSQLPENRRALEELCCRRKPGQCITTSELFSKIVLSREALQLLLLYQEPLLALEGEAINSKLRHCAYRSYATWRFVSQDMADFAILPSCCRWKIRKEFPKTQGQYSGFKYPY

| Molecule | tested on | assay | test system | conditions | how to read | endpoint | result |
| --- | --- | --- | --- | --- | --- | --- | --- |
| AAASMWR | MsrA and MsrB | LC-MS/MS | peptide, actinonin-treated Escherichia coli proteome | 10 min, pH 7.5, 37 °C, together with: MsrA 0.54 µM, MsrB 2.02 µM | – | fractional oxidation | 0.667 |
| GLAQWISGV | Jurkat T cells expressing 1G4 TCR | NFAT-eGFP reporter, flow cytometry | peptide | concentration not given, HLA-A*02:01 NY-ESO system | – | reporter activation | 0.19% |
| maraviroc | GSK-3α | – | mice, NSG hu-PBL, HIV-infected, brain | ip, 120 mg/kg twice daily, 3 weeks post-infection, normalized to actin | – | total GSK-3α level | no effect |
| FNA / CGLSGLGVA-NH2 ([18F]FNA-labelled, C-amide) | – | ex vivo gamma counting | peptide, healthy mice, small intestine | dose not given, 60 min | – | tissue uptake | 1.3 %ID/g |
| GSGAGKETRV | human MAGI1-3/6 PDZ construct (MBP fusion) | automated holdup | peptide, crude extract | concentration not given, uncorrected, unit not given | baseline: biotin control resin, higher = stronger binding | binding intensity | 0.487 |
| SLLQWVTQV | Jurkat T cells expressing 1G4 TCR | NFAT-eGFP reporter, fluorescence microscopy | peptide | concentration not given, HLA-A*02:01 NY-ESO system | – | reporter activation | 28.1% |
| adenosylhomocysteinase | – | co-immunoprecipitation | human RBC membrane | unit not given, together with: Band 3 peptide 1-56 bait | baseline: negative control | co-IP enrichment | 0 |
| GSGAGKESYV | human MAGI1-2/6 PDZ construct (MBP fusion) | surface plasmon resonance | peptide | concentration not given | higher = stronger binding | normalised SPR binding response | 26.6 normalised RU |
| GEMVGQARILAQATSDLVNAIKDA | vinculin head domain Vd1 | complex rupture, AFM single-molecule force spectroscopy | peptide | traces traces, C-terminal pulling, 800 nm/s | – | rupture force FWHM lower side | 38.6 pN |
| Teicoplanin | – | item: stability | human serum | 1 days, 2-6 °C, high QC | – | recovery | 98.8% |
| SEKHFRETEV | human MAGI1-2/6 PDZ construct (MBP fusion) | automated holdup | peptide, crude extract | concentration not given, corrected by standard peak, unit not given | baseline: biotin control resin, higher = stronger binding | binding intensity | 0.555 |
| human LDL receptor | – | co-immunoprecipitation | human RBC cytosol | unit not given, together with: Band 3 peptide 1-56 bait | baseline: negative control | co-IP enrichment | 0 |
| milbemycin oxime | Saccharomyces cerevisiae | cell growth | Pdr5 deleted, Cdr1 overexpressed | 2^-6.644 µg/mL | – | OD600 | 0.989 and 0.997 and 0.987 |
| ACEEQNPWARYLEWLFPTETLLLEL | – | ex vivo fluorescence imaging | peptide, BALB/c mice, 4T1 tumour-bearing, 4T1 tumour | intravenous, 5 nmol, 4 h post-injection | higher = more uptake | mean fluorescence intensity | 3510 ± 623 a.u. |
| GSGAGICTIV | human MAGI1-3/6 PDZ construct (MBP fusion) | automated holdup | peptide, crude extract | concentration not given, corrected by standard peak, unit not given | baseline: biotin control resin, higher = stronger binding | binding intensity | 0.135 |
| hemoglobin beta | – | co-immunoprecipitation | human RBC membrane | DSSO crosslinker, unit not given, together with: Band 3 peptide 1-56 bait | baseline: negative control | co-IP enrichment | 2470 |
| MTVCNASQRQAHAQATAVSL | PC-9 | phage binding | peptide | – | baseline: targeting over control phage | selectivity ratio | 0.56 ± 0.29 |
| SEC11A | – | co-immunoprecipitation | human RBC cytosol | DMTMM crosslinker, unit not given, together with: Band 3 peptide 1-56 bait | baseline: negative control | co-IP enrichment | 9.24 |
| ALLQWVSTV | Jurkat T cells expressing 1G4 TCR | NFAT-eGFP reporter, flow cytometry | peptide | concentration not given, HLA-A*02:01 NY-ESO system | – | reporter activation | 0.29% |
| USP14 | – | co-immunoprecipitation | human RBC membrane | unit not given, together with: Band 3 peptide 1-56 bait | baseline: negative control | co-IP enrichment | 0 |
| NPDALPETLV | human MAGI1-2/6 PDZ construct (MBP fusion) | automated holdup | peptide, purified PDZ protein | concentration not given, unit not given | baseline: biotin control resin, higher = stronger binding | binding intensity | 0.182 |
| Peginesatide | UT7/EPO | tyrosine phosphorylation, LC-MS/MS phosphoproteomics, trypsin, item: SHIP2 tyrosine 1135 | – | 10 nM, 15 min, together with: 10 U/mL EPO | baseline: vehicle | phosphorylation level | 3.3 fold |
| 11-deoxycorticosterone | – | stopped-flow global kinetic fitting | – | 4-state closed model (best), 10-fold adrenodoxin excess, together with: substrate binding k-2 | – | rate constant | 45.8 ± 1.6 min⁻¹ |
| cotadutide | – | lipidomics, item: hepatic total Phosphatidylcholines | ob/ob mice on AMLN diet, NASH model, liver | dose not given | – | metabolite level | 0.86 ± 0.03 scaled intensity |
| Polymyxin B | Staphylococcus aureus | DiSC3(5) fluorescence | – | concentration not given, 45 min | higher = more depolarisation | membrane depolarisation | 746 a.u. and 541 a.u. and 587 a.u. |

| Molecule | tested on | assay | test system | conditions | how to read | endpoint | result |
| --- | --- | --- | --- | --- | --- | --- | --- |
| insulin degludec | – | – | human | subcutaneous, 0.4 IU/kg, 3 FC level, single dose, reference formulation | – | apparent clearance CL/F | 1.56 ± 1.33 L/h |
| CAGATACTCT | Salmonella enterica Typhimurium | broth microdilution | peptide, SL1344 | range over 0.3-10 µM, 24 h, 37 °C, Mueller-Hinton broth | – | MIC | > 10 µM |
| KPGKGSETVV | human SCRIB PDZ3-4 tandem (MBP fusion) | automated holdup | peptide, purified PDZ protein | concentration not given, unit not given | baseline: biotin control resin, higher = stronger binding | binding intensity | 0.13 |
| FGA (Homo sapiens, UniProt P02671) | AFAP1L1 (Homo sapiens, UniProt Q8TED9) | cross-linking MS | – | together with: DSSO | – | cross-linked residues | K437 to K761 |
| caspofungin | – | – | adult ICU patients, mITT, serum | dose not given, Follow-up | – | magnesium | 0.6 mmol/L |
| ALLQWIAIL | Jurkat T cells expressing 1G4 TCR | NFAT-eGFP reporter, flow cytometry | peptide | concentration not given, HLA-A*02:01 NY-ESO system | – | reporter activation | 0.092% |
| BzATP | P2X purinoceptor 7 (P2rx7, Rattus norvegicus, UniProt Q64663, R125A) | ion current, agonist, two-electrode voltage clamp | Xenopus oocytes | 100 µM | – | normalized current | 0.974 and 1 |
| GLFQWISGA | Jurkat T cells expressing 1G4 TCR | NFAT-eGFP reporter, flow cytometry | peptide | concentration not given, HLA-A*02:01 NY-ESO system | – | reporter activation | 0.11% |
| methyl-β-cyclodextrin | SLC6A9 (Homo sapiens, UniProt P48067) | transport activity, [3H]glycine uptake | – | 2.5 mg/mL, 1 min, together with: glycine 150 µM | higher = more transport | glycine uptake rate | 37.9 a.u. and 50.6 a.u. and 39.3 a.u. and 50.1 a.u. and 38.8 a.u. |
| FGB (Homo sapiens, UniProt P02675) | KIF9 (Homo sapiens, UniProt Q9HAQ2) | cross-linking MS | – | together with: DSSO | – | cross-linked residues | K157 to K667 |
| CTCATTGTCT | Salmonella enterica Typhimurium | RNA-seq, item: SL1344_3728 transcript | peptide, SL1344 | 5 µM, 15 min | baseline: untreated control | log2 fold change | 2.51 |
| colistin | Enterobacter cloacae | broth microdilution | clinical isolate RKI-No_460/16 | – | – | MIC | ≤ 0.5 µg/mL |
| ILEAAKSIAAATSALVKAASAAQRE | vinculin head domain Vd1 | complex rupture, AFM single-molecule force spectroscopy | peptide | double traces, C-terminal pulling, 800 nm/s | – | mean rupture force | 44.8 pN |
| DNA 1 CACTGGCCGTCTTACGGTCGCTCTGCTCGACG / DNA 2 CGACCGTAAGACGGCCAGTG (dsDNA; 20 bp, 3' 12 nt overhang) | RECQL 63-592 Y564A (Bos taurus, UniProt A0JN36) | fluorescence anisotropy | double-stranded DNA | together with: Mg2+ 3 mM | – | Kd | 60.8 ± 23.6 nM |
| epoetin alfa | UT7/EPO | microarray, item: MAFF mRNA (probe set 36711_at) | – | 5 U/mL, 90 min | baseline: vehicle | mRNA level | 5.1 fold |
| GSGAGQITKV | human SCRIB PDZ3-4 tandem (MBP fusion) | surface plasmon resonance | peptide | concentration not given | higher = stronger binding | normalised SPR binding response | 0 normalised RU |
| ALMQWVSQV | Jurkat T cells expressing 1G4 TCR | NFAT-eGFP reporter, flow cytometry | peptide | concentration not given, HLA-A*02:01 NY-ESO system | – | reporter activation | 58.7% |
| STVQLIMQL | HLA class I histocompatibility antigen, A alpha chain, allele A*02:01 (Homo sapiens, UniProt P04439) | complex stability, off-rate | peptide | 37 °C | – | half-life of peptide-HLA complex | 1.1 h |
| human alpha-enolase | – | co-immunoprecipitation | human RBC cytosol | DMTMM crosslinker, unit not given, together with: Band 3 peptide 1-56 bait | baseline: negative control | co-IP enrichment | 488 |
| RLFEWVPRL | Jurkat T cells expressing 1G4 TCR | NFAT-eGFP reporter, flow cytometry | peptide | concentration not given, HLA-A*02:01 NY-ESO system | – | reporter activation | 0.18% |
| human retinal dehydrogenase 1 | – | co-immunoprecipitation | human RBC membrane | DMTMM crosslinker, unit not given, together with: Band 3 peptide 1-56 bait | baseline: negative control | co-IP enrichment | 0 |
| GSGAGPETLV | human SCRIB PDZ3-4 tandem (MBP fusion) | surface plasmon resonance | peptide | concentration not given | higher = stronger binding | normalised SPR binding response | 42.2 normalised RU |
| GLFQWISQA | Jurkat T cells expressing 1G4 TCR | NFAT-eGFP reporter, flow cytometry | peptide | concentration not given, HLA-A*02:01 NY-ESO system | – | reporter activation | 2.82% |
| human HSC70 | – | co-immunoprecipitation | human plasma | unit not given, together with: Band 3 peptide 1-56 bait | baseline: negative control | co-IP enrichment | 1.6 |

For quick reference, copied from above:
| Molecule | tested on | assay | test system | conditions | how to read | endpoint | result |
| --- | --- | --- | --- | --- | --- | --- | --- |
| 11-deoxycorticosterone | – | stopped-flow global kinetic fitting | – | 4-state closed model (best), 10-fold adrenodoxin excess, together with: substrate binding k-2 | – | rate constant | 45.8 ± 1.6 min⁻¹ |
| GLFQWISGA | Jurkat T cells expressing 1G4 TCR | NFAT-eGFP reporter, flow cytometry | peptide | concentration not given, HLA-A*02:01 NY-ESO system | – | reporter activation | 0.11% |
| BzATP | P2X purinoceptor 7 (P2rx7, Rattus norvegicus, UniProt Q64663, R125A) | ion current, agonist, two-electrode voltage clamp | Xenopus oocytes | 100 µM | – | normalized current | 0.974 and 1 |
